Experimental data pooled from the literature.
Every numbered part comes from another study and shows a few of its results, in no order.

Set 1
Target: Histone acetyltransferase KAT6A, winged helix 2, GST fusion (KAT6A, Homo sapiens, UniProt Q92794, residues 85-181)
Method: protein binding microarray
Molecule type: double-stranded DNA, one strand shown
Matrix: in vitro
Concentration: not given
Setting: 8-mer, flanks averaged, mean of 2 arrays, mostly near background
Reference: not given
Reading: higher = stronger binding
Residues (chain): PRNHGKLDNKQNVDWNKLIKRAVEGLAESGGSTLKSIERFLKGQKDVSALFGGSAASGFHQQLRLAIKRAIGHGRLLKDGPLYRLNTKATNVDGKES
For `AAATTTAT`, the E-score was 0.0146.
`ACTACAAT` gave an E-score of -0.012.
`CGCGTCGC` has an E-score of 0.191.
For `CGGCATAA`, the E-score was 0.0457.
With `CCCATTTC` the E-score was -0.211.
`CGGGATCA` gave an E-score of -0.00186.

Set 2
Target: Prothrombin, mature alpha-thrombin (F2, Homo sapiens, UniProt P00734)
Method: aptamer microarray, sandwich
Molecule type: DNA with 2'F-ANA
Matrix: in vitro
Concentration: 200 nM
Setting: whole 15-mer aptamer, many near background
Added: Cy3 exosite-II aptamer, 400 nM
Reading: higher = stronger binding
Strand: GGTTGGTGTGGTTGG
`2'F-ANA at 4 5 6 7 8 10 12 13 15` — result for “mean fluorescence intensity”: 83.2 a.u.
For `2'F-ANA at 1 3 4 5 8 9 11 12 13 15`, “mean fluorescence intensity” read 69.9 a.u.
For `2'F-ANA at 2 4 7 9 11 13`, “mean fluorescence intensity” read 264 a.u.
Under “mean fluorescence intensity”, `2'F-ANA at 1 2 3 5 6 7 9 10 11` is recorded as 52.4 a.u.
`2'F-ANA at 7 10 11 13 14`: “mean fluorescence intensity” 137 a.u.
`2'F-ANA at 2 3 4 7 9 12 13` — result for “mean fluorescence intensity”: 657 a.u.

Set 3
Target: RNA binding protein fox-1 homolog 2, RRM domain, GST-SBP tag (RBFOX2, Homo sapiens, UniProt O43251-10, residues 100-194)
Method: RNA Bind-n-Seq
Molecule type: RNA
Matrix: in vitro
Concentration: 365 nM
Setting: natural RNA segment, single round, ends assumed
Reference: no-protein control
Reading: higher = stronger binding
`GGGAGUUCUACAGUCCGACGAUCAGGGAAAUAGAAGCCCGUUCUUUCUUACUGCCCCUGGAGGGAGCAUGGCGCUAGGGCUCUCAGCCUCCUAGAAGGAAGGGACUAAGGAGACGGGCACAGACUUGCGUCAUUGGAAUUCUCGGGUGCCAA`: “RBNS enrichment (R)” 1.16.
`GGGAGUUCUACAGUCCGACGAUCCAAGUGUGAGCUUUCUGAGCAAGGGGAUUUUUUUGCUUCAGAGAAGUAAGUGUCUGUCCGUUUUCAUUCAGGGGAAAACUUGGUGUGAGCUUUGUCUGUCUGUGACCUCCUGGAAUUCUCGGGUGCCAA` — result for “RBNS enrichment (R)”: 0.465.
Under “RBNS enrichment (R)”, `GGGAGUUCUACAGUCCGACGAUCGCCAAUGGAGAAAUGCAGCAUUCACUCUCCCUGUCUUUUCCCCUUCCCUCAGCAGAAACGUGUUUAUCAGCAAGUCGUGAGUCAAACUGCUGCCUUUUAAAAAACCCACAUGGAAUUCUCGGGUGCCAA` is recorded as 1.5.

Further values, each from its own experiment
The fold induction of `PhoQ, residues 284 288 289 292 302 303 AGHLVA` is reported as 1.29 (PhoP, residues 12 14 15 18 19 YHFSH (Escherichia coli, UniProt P23836); Sort-seq, refers to: YFP reporter; E. coli; PhoQ-PhoP variant library, added: 10 µM Mg2+; reference: high Mg2+ state, higher = stronger signaling).

For quick reference, copied from above (further values, each from its own experiment):
The fold induction of `PhoQ, residues 284 288 289 292 302 303 AGHLVA` is reported as 1.29 (PhoP, residues 12 14 15 18 19 YHFSH (Escherichia coli, UniProt P23836); Sort-seq, refers to: YFP reporter; E. coli; PhoQ-PhoP variant library, added: 10 µM Mg2+; reference: high Mg2+ state, higher = stronger signaling).
